# Experimental data from different studies.
# Compare with care: the assays were run in different laboratories. ± marks the error that the study gave.
# Medium: plasma
Structure (SMILES),test system,setting,AUC(0-inf) [µg·h/mL]
CC(C)(Sc1ccncc1-c1ccc(C#N)c2ccccc12)C(=O)OC1OC(C(=O)O)C(O)C(O)C1O (centres unmarked),,"oral, 15 mg, mild renal impairment, fasted",0.266
CC(C)[C@H](NC(=O)CNC(=O)[C@H](CCC(N)=O)NC(=O)[C@H](C)N)C(=O)O,"healthy volunteers, LPS endotoxaemia","intravenous, 90 mg/kg/h, 2 h infusion, geometric mean, together with: LPS 2 ng/kg",19.7
Cc1ccccc1-c1cc(N2CCNCC2)ncc1N(C)C(=O)C(C)(C)c1cc(C(F)(F)F)cc(C(F)(F)F)c1,healthy volunteers,"oral, dose not given, netupitant-palonosetron, standard dissolution capsule",5.17
O=C(O)/C=C/c1cccc(S(=O)(=O)Nc2ccccc2)c1,patients with normal liver function,"intravenous, 400 mg/m^2 belinostat, single 30 min infusion, cycle 1 day -7, mean",6.02
CC(C)(Sc1cc[n+]([O-])cc1-c1ccc(C#N)c2ccccc12)C(=O)OC1OC(C(=O)O)C(O)C(O)C1O (centres unmarked),,"oral, 15 mg, severe renal impairment, fasted",1.57
COc1cc(C)c(Cc2ccc(O)cc2)cc1[C@@H]1S[C@H](CO)[C@@H](O)[C@H](O)[C@H]1O,Japanese T2DM patients,"0.5 mg luseogliflozin, day 1, once daily",0.0286 ± 0.00617
O=C(O)c1cccc(S(=O)(=O)Nc2ccccc2)c1,patients with normal liver function,"intravenous, 400 mg/m^2 belinostat, single 30 min infusion, cycle 1 day -7, mean",16.8
CN1CCN(c2cc(-c3ccccc3CO)c(N(C)C(=O)C(C)(C)c3cc(C(F)(F)F)cc(C(F)(F)F)c3)cn2)CC1,cancer patients,"oral, dose not given, netupitant-palonosetron single dose, range of means",5.29 to 5.95

# A few entries again:
Structure (SMILES),test system,setting,AUC(0-inf) [µg·h/mL]
CC(C)(Sc1ccncc1-c1ccc(C#N)c2ccccc12)C(=O)OC1OC(C(=O)O)C(O)C(O)C1O (centres unmarked),,"oral, 15 mg, mild renal impairment, fasted",0.266
